Measured values of several laboratories.
Numbered parts are unrelated; each lists some results of a single study. Changes are numbered by the printed parent chain.

Set 1
Target: RNA binding protein fox-1 homolog 2, RRM domain, GST-SBP tag (RBFOX2, Homo sapiens, UniProt O43251-10, residues 100-194)
Method: RNA Bind-n-Seq
Form: RNA
Medium: in vitro
Tested at: 365 nM
Setting: natural RNA segment, single round, ends assumed
Baseline: no-protein control
Direction: higher = stronger binding
All sequences stand within: GGGAGUUCUACAGUCCGACGAUC … UGGAAUUCUCGGGUGCCAA
Sequence	RBNS enrichment (R)
UCCUCUCUUUCUGUGUUUUCUUAGGAUGUGCACUUUAAUUUAGGAUUGUAACGCCUAAUAAUAUUUCUGUGAGCCUUUAAUGUGAUUUAUAAGAUGGCCGAAUUACUGAA	1.01
UUGCUGACUAGGGCUUGGGCUAGAAGAGAAGAGCUGGAUUACUCGCUGUUUCCUGCACUUAAGCCUUGGCAGGAGCCAAGGUCUAUGGUUUUUUGAGAUGAAGCAUUUGU	1.67
UGGAGCCAGCGAGACCAGGAUCCCUGGAAUCUCUCAAGUUCACUGGCCCCUGAGAAUGCCUGUGUUAGUUAAAGACAGAUGGGAUCAAGGCGAGGGCUACAGGCUGAGAG	1.15
CUCUUUGGUCCUCAGGCCACCAGACCCCUCACAGCAUGGCCCUUGGCUCUUCCUGCACUGCCCUCACCCUCAGCCGUCCCAAGGAGUGCCCAGCACUACUCAGCAUGUAG	10.3
AGCCUUCACAAGCAUGAUAAACCCUCCCUGUUGUGUAUAGUAACGGUCUCAUUUUAUAGUCCACCUUUAAAACACAUCUCUACCUGGUGAAAAGUCAUCACAAGACUCCU	0.463

Set 2
Target: ABI1, truncated, D143A, DHFR fusion (Arabidopsis thaliana, UniProt P49597)
Method: DHFR PCA, dose-response
Medium: yeast
Setting: Hill fit, not affinity, not high confidence
Added: (+)-ABA, dose series
Direction: lower = more sensitive
Parent: PYL1, truncated, DHFR fusion (Arabidopsis thaliana, UniProt Q8VZS8); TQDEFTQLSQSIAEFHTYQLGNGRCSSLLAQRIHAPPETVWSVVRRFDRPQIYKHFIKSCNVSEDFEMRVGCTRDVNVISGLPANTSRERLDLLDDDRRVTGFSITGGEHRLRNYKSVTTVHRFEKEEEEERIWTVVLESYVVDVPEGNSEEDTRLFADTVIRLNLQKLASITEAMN
Variant	ABA EC50
L82H	230 µM
A158F	343 µM
S87I	0.795 µM

Set 3
Target: CCNA2, cyclin fold, Cln2 fusion (human)
Method: yeast growth competition, sequencing
Medium: yeast
Setting: strong parent motif
Baseline: not given
Direction: higher = stronger binding
Parent: ORC1 docking peptide (human); PRARKRLELGNLG
Variant	normalised enrichment score
PRKRKRLELGNLG [A3K]	0.834
SRARKRLELGNLG [P1S]	4.19
ERARKRLELGNLG [P1E]	2.83
PIARKRLELGNLG [R2I]	4.32

Mixed results
Substance	target	assay	system	conditions	scale	quantity	value
PhoQ, residues 284 288 289 292 302 303 SIHMAM	PhoP, residues 12 14 15 18 19 SPWRL (Escherichia coli, UniProt P23836)	Sort-seq, item: YFP reporter	E. coli	PhoQ-PhoP variant library, added: 10 µM Mg2+	baseline: high Mg2+ state, higher = stronger signaling	fold induction	2.41

Repeated from above (set 3):
Variant	normalised enrichment score
ERARKRLELGNLG [P1E]	2.83
SRARKRLELGNLG [P1S]	4.19
